Experimental data gathered from unrelated publications.
A part holds a random share of what one study measured. “And” joins repeats or separate records; there may be more than shown.
Chain of UniProt Q9P286 (whole entry, looked up): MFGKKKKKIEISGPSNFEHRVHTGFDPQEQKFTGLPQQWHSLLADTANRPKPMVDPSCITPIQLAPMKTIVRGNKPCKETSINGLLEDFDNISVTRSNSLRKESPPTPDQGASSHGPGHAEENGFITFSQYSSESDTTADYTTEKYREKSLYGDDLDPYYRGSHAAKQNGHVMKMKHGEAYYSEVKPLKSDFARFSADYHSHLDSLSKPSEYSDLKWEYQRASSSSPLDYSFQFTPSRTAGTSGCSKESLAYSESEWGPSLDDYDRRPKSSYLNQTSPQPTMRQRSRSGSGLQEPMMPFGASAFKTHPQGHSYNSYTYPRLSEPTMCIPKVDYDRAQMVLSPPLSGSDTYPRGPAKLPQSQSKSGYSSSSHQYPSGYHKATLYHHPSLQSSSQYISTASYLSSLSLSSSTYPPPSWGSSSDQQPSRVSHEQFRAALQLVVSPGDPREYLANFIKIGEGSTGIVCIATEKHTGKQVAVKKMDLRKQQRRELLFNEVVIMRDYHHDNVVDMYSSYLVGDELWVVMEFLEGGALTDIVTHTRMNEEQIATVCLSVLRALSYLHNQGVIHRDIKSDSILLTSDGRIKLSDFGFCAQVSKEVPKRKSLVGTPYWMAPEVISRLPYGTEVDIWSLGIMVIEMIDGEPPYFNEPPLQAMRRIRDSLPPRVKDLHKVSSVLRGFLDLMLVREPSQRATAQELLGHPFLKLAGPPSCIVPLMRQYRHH

Study 1 — effect on: kinase activity; endpoint: inhibition
Structure (SMILES): CNc1ncc2cc(-c3cc(OC)cc(OC)c3Cl)c(=O)n(CCc3ccc(NC(=O)C(C#N)=CC(C)(C)N4CCOCC4)cc3)c2n1
PRKD1 (Homo sapiens, UniProt Q15139); 1 µM: 0%
RPS6KB1 (Homo sapiens, UniProt P23443); 1 µM: 0%
RAF1 (Homo sapiens, UniProt P04049); 1 µM: 60%
PDGFRA (Homo sapiens, UniProt P16234); 0.1 µM: 15%
EPHA1 (Homo sapiens, UniProt P21709); 0.1 µM: 0%
PAK2 (Homo sapiens, UniProt Q13177); 0.1 µM: 1%
PIK3CB (Homo sapiens, UniProt P42338); 1 µM: -9%
SPHK2 (Homo sapiens, UniProt Q9NRA0); 1 µM: -1%
LRRK2 (Homo sapiens, UniProt Q5S007, G2019S); 0.1 µM: -3%
CAMK1 (Homo sapiens, UniProt Q14012); 0.1 µM: -2%
PRKCA (Homo sapiens, UniProt P17252); 0.1 µM: -11%
PRKACA (Homo sapiens, UniProt P17612); 1 µM: -5%
MAP2K1 (Homo sapiens, UniProt Q02750); 0.1 µM: -8%
DYRK4 (Homo sapiens, UniProt Q9NR20); 0.1 µM: -4%
PASK (Homo sapiens, UniProt Q96RG2); 0.1 µM: 11%
JAK2 (Homo sapiens, UniProt O60674); 1 µM: 0%

Study 2 — effect on: thermal unfolding; technique: differential scanning fluorimetry; tested at: 5.5 µM; reading: higher = more unfolded; endpoint: SYPRO Orange fluorescence
Compound: C[C@@H]1CN(c2ccc(-c3cc(C(=O)NCCOCCOCCOCCOCCOCCOCCNC(=O)/C=C/c4[nH]cc(C(=O)N[C@@H](CC(N)=O)c5ccc(F)c(Cl)c5)c4-c4ccc(Cl)cc4F)ccc3F)cc2NC(=O)c2ccc(F)cc2C(F)(F)F)C[C@H](C)N1C
WDR5: WD repeat-containing protein 5 (WDR5, Homo sapiens, UniProt P61964)
DCAF1: DDB1- and CUL4-associated factor 1 (DCAF1, Homo sapiens, UniProt Q9Y4B6)
Chain of UniProt Q9Y4B6 (whole entry, looked up): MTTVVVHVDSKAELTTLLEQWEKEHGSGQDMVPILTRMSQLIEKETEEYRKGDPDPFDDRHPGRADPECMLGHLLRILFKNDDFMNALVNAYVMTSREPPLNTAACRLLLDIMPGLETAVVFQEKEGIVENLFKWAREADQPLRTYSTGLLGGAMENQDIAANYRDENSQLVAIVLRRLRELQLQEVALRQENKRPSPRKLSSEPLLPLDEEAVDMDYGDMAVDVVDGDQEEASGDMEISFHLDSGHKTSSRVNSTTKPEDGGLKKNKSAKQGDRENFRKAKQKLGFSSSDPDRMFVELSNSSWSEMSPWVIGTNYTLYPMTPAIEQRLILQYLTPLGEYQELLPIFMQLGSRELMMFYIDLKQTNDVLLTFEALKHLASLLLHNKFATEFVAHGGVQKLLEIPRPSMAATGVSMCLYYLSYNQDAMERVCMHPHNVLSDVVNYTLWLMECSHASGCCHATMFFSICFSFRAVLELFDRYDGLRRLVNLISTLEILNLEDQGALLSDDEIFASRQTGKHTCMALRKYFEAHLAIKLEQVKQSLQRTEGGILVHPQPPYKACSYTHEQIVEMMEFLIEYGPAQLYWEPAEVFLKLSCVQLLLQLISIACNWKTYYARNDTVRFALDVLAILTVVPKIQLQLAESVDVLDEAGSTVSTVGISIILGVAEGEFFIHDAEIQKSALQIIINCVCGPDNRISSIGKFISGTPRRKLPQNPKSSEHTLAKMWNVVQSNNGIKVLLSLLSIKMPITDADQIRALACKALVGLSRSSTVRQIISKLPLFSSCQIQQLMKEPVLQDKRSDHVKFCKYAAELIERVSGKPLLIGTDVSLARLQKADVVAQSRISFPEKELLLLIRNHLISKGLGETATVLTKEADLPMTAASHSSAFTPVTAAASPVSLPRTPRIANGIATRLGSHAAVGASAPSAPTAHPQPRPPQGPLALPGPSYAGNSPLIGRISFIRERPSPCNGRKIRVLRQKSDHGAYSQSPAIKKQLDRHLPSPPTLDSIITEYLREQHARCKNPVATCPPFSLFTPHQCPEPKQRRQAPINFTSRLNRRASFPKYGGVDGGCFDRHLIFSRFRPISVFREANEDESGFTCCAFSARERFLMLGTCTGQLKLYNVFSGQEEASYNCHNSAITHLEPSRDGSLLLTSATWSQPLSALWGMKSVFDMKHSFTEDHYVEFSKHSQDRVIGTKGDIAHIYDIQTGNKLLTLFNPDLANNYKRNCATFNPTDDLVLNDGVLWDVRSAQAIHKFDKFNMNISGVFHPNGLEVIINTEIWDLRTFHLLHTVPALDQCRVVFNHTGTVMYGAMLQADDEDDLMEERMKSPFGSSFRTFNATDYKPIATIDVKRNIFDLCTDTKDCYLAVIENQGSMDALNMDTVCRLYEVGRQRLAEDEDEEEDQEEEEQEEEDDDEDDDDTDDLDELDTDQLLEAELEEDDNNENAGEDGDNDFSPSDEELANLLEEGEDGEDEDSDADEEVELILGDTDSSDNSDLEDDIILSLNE
WDR5; 40.2 °C: 14200 a.u.
DCAF1; 35.2 °C: 9960 a.u.
WDR5; 69.61 °C: 26000 a.u.
WDR5; 85.41 °C: 61500 a.u.
DCAF1; 79.81 °C: 40100 a.u.
WDR5; 72.01 °C: 35600 a.u.
WDR5; 31 °C: 13600 a.u.
WDR5; 71.01 °C: 31300 a.u.
WDR5; 55.81 °C: 16400 a.u.
WDR5; 71.61 °C: 33900 a.u.
DCAF1; 33.4 °C: 9380 a.u.

Study 3 — cell line: U-87 MG; tested at: concentration not given; baseline: DMSO; endpoint: log2 fold change
SMILES: CCN1/C(=C/C=C2\CCCC(/C=C/C3=[N+](CC)c4ccccc4C3(C)C)=C2NCCCCCCCCN2CCC(Nc3nc4ccccc4n3Cc3ccc(F)cc3)CC2)C(C)(C)c2ccccc21
item: ABCB6 mRNA: -0.896
item: RTL8B mRNA: -1.3
item: CCDC28A mRNA: 0.972
item: RNF185 mRNA: 1.51
item: ZNF674 mRNA: 1.1
item: ELOVL4 mRNA: 1.04
item: ARNTL mRNA: 1.24
item: EVI2A mRNA: -1.48
item: OSER1 mRNA: 1.24
item: CSDC2 mRNA: -2.31
item: ERCC6L mRNA: -2.86
item: ALG2 mRNA: 0.946
item: OLFML3 mRNA: -2.32
item: MTFR1 mRNA: 0.896
item: ZCCHC7 mRNA: 1.21
item: SLCO4A1 mRNA: 1.64

Study 4 — technique: KINOMEscan; setting: unit not given; baseline: DMSO; endpoint: remaining binding
SMILES: CCOc1ccc2nc(Sc3nc(Nc4ccc(OC)cc4)nc(N4CCOCC4)n3)sc2c1
Target: 1-phosphatidylinositol 3-phosphate 5-kinase (PIKFYVE, Homo sapiens, UniProt Q9Y2I7)
Chain of UniProt Q9Y2I7 (whole entry, looked up): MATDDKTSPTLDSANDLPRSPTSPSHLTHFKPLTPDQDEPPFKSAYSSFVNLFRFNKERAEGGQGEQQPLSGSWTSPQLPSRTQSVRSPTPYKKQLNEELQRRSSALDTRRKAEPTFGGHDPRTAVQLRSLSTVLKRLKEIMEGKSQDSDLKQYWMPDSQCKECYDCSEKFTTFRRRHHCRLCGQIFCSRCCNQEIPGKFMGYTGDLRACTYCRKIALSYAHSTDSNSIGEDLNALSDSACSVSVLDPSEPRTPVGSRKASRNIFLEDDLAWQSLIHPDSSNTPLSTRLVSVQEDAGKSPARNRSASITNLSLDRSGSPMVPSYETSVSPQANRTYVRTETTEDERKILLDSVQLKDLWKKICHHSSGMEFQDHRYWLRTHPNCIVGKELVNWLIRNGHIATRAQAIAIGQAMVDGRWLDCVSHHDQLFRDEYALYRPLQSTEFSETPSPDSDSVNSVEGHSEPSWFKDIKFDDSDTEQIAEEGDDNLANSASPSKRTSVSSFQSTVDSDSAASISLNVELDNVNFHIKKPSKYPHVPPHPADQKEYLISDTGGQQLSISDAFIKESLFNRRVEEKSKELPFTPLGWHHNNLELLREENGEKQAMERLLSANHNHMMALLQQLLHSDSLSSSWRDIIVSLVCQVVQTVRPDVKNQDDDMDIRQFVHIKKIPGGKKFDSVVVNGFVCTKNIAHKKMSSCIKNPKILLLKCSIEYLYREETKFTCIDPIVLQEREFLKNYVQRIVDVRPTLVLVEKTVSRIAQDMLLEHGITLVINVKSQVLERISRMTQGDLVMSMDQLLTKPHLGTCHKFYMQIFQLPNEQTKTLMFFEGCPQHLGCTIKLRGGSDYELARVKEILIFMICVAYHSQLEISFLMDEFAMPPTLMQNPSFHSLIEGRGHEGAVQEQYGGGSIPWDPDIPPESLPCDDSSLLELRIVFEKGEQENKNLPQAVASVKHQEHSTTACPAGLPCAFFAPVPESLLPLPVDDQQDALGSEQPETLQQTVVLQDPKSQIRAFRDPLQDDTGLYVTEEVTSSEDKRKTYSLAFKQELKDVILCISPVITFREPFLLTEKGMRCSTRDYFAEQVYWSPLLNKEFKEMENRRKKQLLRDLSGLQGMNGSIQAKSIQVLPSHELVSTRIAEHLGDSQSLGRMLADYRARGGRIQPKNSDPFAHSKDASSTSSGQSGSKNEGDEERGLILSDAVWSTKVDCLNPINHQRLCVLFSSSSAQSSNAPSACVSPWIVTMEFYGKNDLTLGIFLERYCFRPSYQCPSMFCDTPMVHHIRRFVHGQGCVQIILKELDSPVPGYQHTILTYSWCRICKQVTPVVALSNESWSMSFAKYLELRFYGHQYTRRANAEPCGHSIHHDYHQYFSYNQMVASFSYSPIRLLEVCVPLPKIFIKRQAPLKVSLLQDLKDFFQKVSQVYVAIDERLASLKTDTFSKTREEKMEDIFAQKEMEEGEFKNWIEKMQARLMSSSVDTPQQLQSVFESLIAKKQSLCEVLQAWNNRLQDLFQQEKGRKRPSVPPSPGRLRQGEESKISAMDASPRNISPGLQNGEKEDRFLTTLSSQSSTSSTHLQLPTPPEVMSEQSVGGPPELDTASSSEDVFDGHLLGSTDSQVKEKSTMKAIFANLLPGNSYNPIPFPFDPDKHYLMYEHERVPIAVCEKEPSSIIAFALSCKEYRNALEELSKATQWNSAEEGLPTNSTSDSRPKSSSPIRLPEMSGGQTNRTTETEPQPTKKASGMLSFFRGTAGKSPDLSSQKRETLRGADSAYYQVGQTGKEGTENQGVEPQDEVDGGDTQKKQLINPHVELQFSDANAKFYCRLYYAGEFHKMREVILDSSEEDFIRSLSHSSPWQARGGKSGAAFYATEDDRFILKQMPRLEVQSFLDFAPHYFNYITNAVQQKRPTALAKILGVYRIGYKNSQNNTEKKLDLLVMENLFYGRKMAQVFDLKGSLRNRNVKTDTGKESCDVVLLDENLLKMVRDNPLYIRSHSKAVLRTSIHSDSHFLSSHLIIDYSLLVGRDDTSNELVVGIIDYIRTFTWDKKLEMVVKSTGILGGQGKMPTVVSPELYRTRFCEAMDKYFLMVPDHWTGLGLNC
9900 nM: 0.00285 and 0.00278
41.2 nM: 0.799 and 0.954
3330 nM: 0.00633 and 0.008
367 nM: 0.198 and 0.194
1100 nM: 0.0267 and 0.0293
370 nM: 0.192 and 0.213
0.508 nM: 1.08 and 1.14
0.168 nM: 0.696 and 0.855

Study 5 — tested at: 1 µM; endpoint: remaining binding
Compound: CC[C@@]1(c2cccc(-c3c(F)cncc3OC)c2)C2=C(Nc3n[nH]cc31)[C@H](F)C(C)(C)CC2=O (single isomer, unassigned)
LIM domain kinase 2 (LIMK2, Homo sapiens, UniProt P53671); binding, competition with immobilised ligand: 100%
MAP3K2 (Homo sapiens, UniProt Q9Y2U5); binding, competition with immobilised ligand: 90%
PLK3 (Homo sapiens, UniProt Q9H4B4); kinase binding, KINOMEscan; baseline: DMSO control: 60%
EGFR (Homo sapiens, UniProt P00533, L858R); kinase binding, KINOMEscan; baseline: DMSO control: 100%
NEK10 (Homo sapiens, UniProt Q6ZWH5); kinase binding, KINOMEscan; baseline: DMSO control: 14%
NEK3 (Homo sapiens, UniProt P51956); kinase binding, KINOMEscan; baseline: DMSO control: 58%
Myosin-IIIb (MYO3B, Homo sapiens, UniProt Q8WXR4); binding, competition with immobilised ligand: 100%
EPHA3 (Homo sapiens, UniProt P29320); binding, competition with immobilised ligand: 70%
EIF2AK1 (Homo sapiens, UniProt Q9BQI3); binding, competition with immobilised ligand: 91%
MAP3K19 (Homo sapiens, UniProt Q56UN5); binding, competition with immobilised ligand: 60%
ROS1 (Homo sapiens, UniProt P08922); binding, competition with immobilised ligand: 78%
GRK7 (Homo sapiens, UniProt Q8WTQ7); binding, competition with immobilised ligand: 92%
MAPK14 (Homo sapiens, UniProt Q16539); kinase binding, KINOMEscan; baseline: DMSO control: 71%
MAP3K5 (Homo sapiens, UniProt Q99683); binding, competition with immobilised ligand: 68%
Aurora kinase B (AURKB, Homo sapiens, UniProt Q96GD4); binding, competition with immobilised ligand: 62%
CHEK1 (Homo sapiens, UniProt O14757); kinase binding, KINOMEscan; baseline: DMSO control: 75%
PAK5 (Homo sapiens, UniProt Q9P286); kinase binding, KINOMEscan; baseline: DMSO control: 96%
BUB1 (Homo sapiens, UniProt O43683); kinase binding, KINOMEscan; baseline: DMSO control: 64%

Study 6 — cell line: HCC1569; technique: in-cell western; item: CDK1 phospho-Thr14; tested at: 12.35 nM; endpoint: pCDK1 (Thr14) level
Cc1ccc(O)c(C)c1-c1cnc2[nH]c(-c3cnc(N4CCC(CCN5CCN(c6cc7c(cc6F)c(N6CCC(=O)NC6=O)nn7C)CC5)CC4)nc3)cc2c1C#N: 60.1 RLU and 42.8 RLU
Cc1ccc(O)c(C)c1-c1cnc2[nH]c(-c3cnc(N4CCC(CN5CCN(c6c(F)cc(NC7CCC(=O)NC7=O)cc6F)CC5)CC4)nc3)cc2c1C#N (racemic): 35.2% and 40.6%
Cc1ccc(O)c(C)c1-c1cnc2[nH]c(-c3cnc(N4CCC(CN5CCN(c6ccc(NC7CCC(=O)NC7=O)c(F)c6)CC5)CC4)nc3)cc2c1C#N (racemic): 15.7% and 29.4%
Cc1ccc(O)c(C)c1-c1cnc2[nH]c(-c3cnc(N4CCC(CN5CCN(c6ccc7c(c6)C(=O)N(C6CCC(=O)NC6=O)C7=O)CC5)CC4)nc3)cc2c1C#N (stereo not shown): 41.9% and 43.8%
Cc1ccc(O)c(C)c1-c1cnc2[nH]c(-c3cnc(N4CCC5(CC4)CC(N4CCN(c6ccc7c(c6F)CN(C6CCC(=O)NC6=O)C7=O)CC4)CO5)nc3)cc2c1C#N (mixture of isomers): 32.9 RLU and 36.5 RLU

Study 7 — endpoint: hypocotyl length
SMILES: O=C(O)C1(O)Oc2cc(F)ccc2N(Cc2ccccc2)C1=O (stereo not shown)
Arabidopsis thaliana Col-0 seedlings; 50 µg/mL, together with: branched-chain amino acids: 1.65 cm and 1.59 cm and 1.63 cm and 1.61 cm and 1.58 cm and 1.62 cm and 1.6 cm
Arabidopsis thaliana; Col-0; 25 µg/mL, seed germination, single repetition: 0.98 cm and 0.95 cm and 1.02 cm and 0.92 cm
Arabidopsis thaliana; Col-0, seedlings; 50 µg/mL, together with: BCAA: 1.61 cm
Arabidopsis thaliana; Col-0; 12.5 µg/mL, seed germination, single repetition: 1.31 cm and 1.35 cm and 1.3 cm and 1.29 cm and 1.32 cm
Arabidopsis thaliana; Col-0; 3.125 µg/mL, seed germination, single repetition: 1.92 cm and 1.8 cm and 1.84 cm and 1.83 cm and 1.94 cm
Arabidopsis thaliana; Col-0, seedlings; 50 µg/mL, 1/2 MS medium: 0.01 cm
Arabidopsis thaliana; Col-0, seedlings on half-strength MS medium; 50 µg/mL: 0.01 cm
Arabidopsis thaliana; Col-0; 50 µg/mL, seed germination, single repetition: 0.11 cm and 0.1 cm and 0.13 cm
Arabidopsis thaliana; Col-0; 100 µg/mL, seed germination, single repetition: 0.01 cm

Study 8 — effect on: cell viability; technique: CellCounting-Lite; temperature: 37 °C; reading: higher = more viable cells; endpoint: luminescence signal
SMILES: CCN(CC)CC(=O)N1CCN(c2nc(NCc3nc4cc(Cl)c(Cl)cc4[nH]3)c3ncn(CC)c3n2)CC1
MDA-MB-231; 0.1221 nM: 406000 a.u. and 376000 a.u. and 353000 a.u.
MDA-MB-468; 0.007629 nM: 183000 a.u. and 205000 a.u. and 176000 a.u.
MDA-MB-231; 500 nM: 7350 a.u. and 6940 a.u. and 7480 a.u.

Study 9 — technique: CellTiter-Glo; endpoint: viability
Compound: CCN1CCN(Cc2ccc(COc3c(-c4c(C)c(F)cc5[nH]ncc45)c(C4CC4)cc4c(N5C[C@@H]6C[C@H]5CN6)nc(OC5CCOCC5)nc34)cc2)C(=O)C1
AsPC-1 (KRAS G12D); 1 nM: 77.8% and 80.5% and 82% and 71.9%
AsPC-1 (KRAS G12D); 100 nM: 72.2% and 73.1% and 88.6% and 72.9%
AsPC-1 (KRAS G12D); 300 nM: 42.1% and 49.2% and 54.4% and 57.1%
AsPC-1 (KRAS G12D); 10 nM: 89.3% and 90.5% and 81.2% and 101%
A-375 (KRAS wild type); 1 µM, 6 days; baseline: DMSO: 101% and 103% and 108%
AsPC-1 (KRAS G12D); 10 µM: 0.025% and 0.001%
AsPC-1 (KRAS G12D); 30 nM: 91% and 81% and 80.8% and 84.3%
AsPC-1 (KRAS G12D); 3 nM: 82.6% and 74.9% and 95.1% and 86%

Study 10 — Structure (SMILES): Cc1cc(OCC(=O)NC(C)C)ccc1Cl; mode: inhibitor; technique: FLIPR membrane potential; cells: CHO-BC cells; setting: unit not given; endpoint: remaining transport activity
Target: Sodium-dependent neutral amino acid transporter B(0)AT1 (SLC6A19, Homo sapiens, UniProt Q695T7)
Chain of UniProt Q695T7 (whole entry, looked up): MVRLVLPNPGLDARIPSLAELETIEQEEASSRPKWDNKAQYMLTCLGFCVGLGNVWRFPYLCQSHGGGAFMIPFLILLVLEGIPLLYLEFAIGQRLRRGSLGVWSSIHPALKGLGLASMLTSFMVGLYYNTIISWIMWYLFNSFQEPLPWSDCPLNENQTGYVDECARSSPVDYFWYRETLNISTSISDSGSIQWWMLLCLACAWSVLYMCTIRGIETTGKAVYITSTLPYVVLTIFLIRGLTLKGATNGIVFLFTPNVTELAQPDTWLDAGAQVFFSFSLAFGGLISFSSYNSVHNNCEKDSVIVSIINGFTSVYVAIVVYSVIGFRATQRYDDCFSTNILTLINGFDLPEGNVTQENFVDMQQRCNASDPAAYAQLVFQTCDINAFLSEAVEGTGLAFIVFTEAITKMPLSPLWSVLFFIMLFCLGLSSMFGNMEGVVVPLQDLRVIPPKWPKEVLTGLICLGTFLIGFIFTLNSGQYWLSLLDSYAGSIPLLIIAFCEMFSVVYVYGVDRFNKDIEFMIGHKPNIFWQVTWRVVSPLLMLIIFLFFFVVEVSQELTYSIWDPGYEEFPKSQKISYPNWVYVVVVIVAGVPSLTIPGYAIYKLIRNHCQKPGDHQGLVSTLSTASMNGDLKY
30 µM; baseline: uninhibited cells: 0.0515
3 µM; baseline: uninhibited cells: 0.198
0.3 µM; baseline: uninhibited cells: 0.683
10 µM; baseline: uninhibited cells: 0.152
100 µM; baseline: uninhibited cells: 0.0516
0.1 µM; baseline: uninhibited cells: 0.889
100 µM; baseline: no inhibitor: 0.104
0.01 µM; baseline: uninhibited cells: 1.02
1 µM; baseline: uninhibited cells: 0.305
0.03 µM; baseline: uninhibited cells: 0.89
0.001 µM; baseline: uninhibited cells: 1.01

Further values, each from its own experiment
Cc1nc(C)c(C=[N+]([O-])C(C)(C)C)nc1C
viability (MTT; primary midbrain neurons, Sprague-Dawley rat; 100 µM, 2 h pretreatment, together with: 20 µM MPP+ for 24 h; baseline: untreated control): 69.1%

Repeated from above (study 3):
item: MTFR1 mRNA: 0.896
item: ERCC6L mRNA: -2.86
item: ELOVL4 mRNA: 1.04
item: RNF185 mRNA: 1.51
item: ALG2 mRNA: 0.946
item: ARNTL mRNA: 1.24
item: EVI2A mRNA: -1.48
item: ABCB6 mRNA: -0.896
item: CCDC28A mRNA: 0.972
item: OSER1 mRNA: 1.24
item: ZCCHC7 mRNA: 1.21
item: CSDC2 mRNA: -2.31
item: OLFML3 mRNA: -2.32
item: ZNF674 mRNA: 1.1
